Assay results pooled from the literature.
± gives the spread as reported. Values after ≈ are worked out from the molar mass of the structure shown.
KCNH2: Voltage-gated inwardly rectifying potassium channel KCNH2 (KCNH2, Homo sapiens, UniProt Q12809)
UniProt Q12809, sequence (whole entry, looked up): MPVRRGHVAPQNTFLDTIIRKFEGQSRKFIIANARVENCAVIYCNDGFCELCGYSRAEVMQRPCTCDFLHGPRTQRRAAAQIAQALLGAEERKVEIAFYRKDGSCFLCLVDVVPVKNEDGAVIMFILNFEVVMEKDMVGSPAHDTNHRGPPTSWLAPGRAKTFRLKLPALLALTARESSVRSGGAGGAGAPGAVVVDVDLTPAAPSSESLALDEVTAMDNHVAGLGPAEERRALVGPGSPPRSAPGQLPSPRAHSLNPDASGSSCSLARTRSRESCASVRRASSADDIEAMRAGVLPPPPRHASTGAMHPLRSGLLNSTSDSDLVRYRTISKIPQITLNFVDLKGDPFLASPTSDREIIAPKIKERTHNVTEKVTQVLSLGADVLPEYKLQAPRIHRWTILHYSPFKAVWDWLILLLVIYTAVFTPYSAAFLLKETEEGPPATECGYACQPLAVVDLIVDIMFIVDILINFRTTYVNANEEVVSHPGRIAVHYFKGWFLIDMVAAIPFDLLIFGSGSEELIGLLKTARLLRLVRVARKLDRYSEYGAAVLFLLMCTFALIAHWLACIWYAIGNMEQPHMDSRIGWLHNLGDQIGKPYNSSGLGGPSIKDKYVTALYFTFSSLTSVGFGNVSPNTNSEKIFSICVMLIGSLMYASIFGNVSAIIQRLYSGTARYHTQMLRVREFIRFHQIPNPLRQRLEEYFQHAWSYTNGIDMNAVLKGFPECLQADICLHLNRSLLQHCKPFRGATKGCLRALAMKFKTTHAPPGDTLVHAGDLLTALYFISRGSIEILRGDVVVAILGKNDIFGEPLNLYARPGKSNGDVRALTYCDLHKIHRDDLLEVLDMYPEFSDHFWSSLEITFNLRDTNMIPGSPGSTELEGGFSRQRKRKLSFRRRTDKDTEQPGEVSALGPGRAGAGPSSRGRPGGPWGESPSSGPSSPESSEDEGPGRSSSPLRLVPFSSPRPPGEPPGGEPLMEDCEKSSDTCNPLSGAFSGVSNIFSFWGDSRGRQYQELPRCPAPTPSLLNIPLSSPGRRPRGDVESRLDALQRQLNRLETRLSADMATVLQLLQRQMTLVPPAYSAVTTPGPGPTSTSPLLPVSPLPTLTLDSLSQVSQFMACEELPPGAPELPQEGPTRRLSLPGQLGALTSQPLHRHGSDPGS
Ephx2: Bifunctional epoxide hydrolase 2 (Ephx2, Mus musculus, UniProt P34914)
UniProt P34914, sequence (whole entry, looked up): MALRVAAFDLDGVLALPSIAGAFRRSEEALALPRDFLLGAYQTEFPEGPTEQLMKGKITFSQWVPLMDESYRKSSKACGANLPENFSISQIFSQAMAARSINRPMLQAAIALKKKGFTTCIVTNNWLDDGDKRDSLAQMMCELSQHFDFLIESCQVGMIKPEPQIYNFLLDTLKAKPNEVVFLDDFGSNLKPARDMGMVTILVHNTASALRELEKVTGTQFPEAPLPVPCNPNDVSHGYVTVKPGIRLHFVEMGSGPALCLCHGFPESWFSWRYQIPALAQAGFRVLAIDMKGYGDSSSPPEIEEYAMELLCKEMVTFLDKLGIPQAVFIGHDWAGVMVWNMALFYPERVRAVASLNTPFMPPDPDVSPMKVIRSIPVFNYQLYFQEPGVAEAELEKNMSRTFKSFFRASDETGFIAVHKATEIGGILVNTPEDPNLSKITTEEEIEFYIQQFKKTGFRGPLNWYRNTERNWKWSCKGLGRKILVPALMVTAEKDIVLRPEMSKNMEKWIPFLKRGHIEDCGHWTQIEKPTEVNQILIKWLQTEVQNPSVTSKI
UniProt P04798, sequence (whole entry, looked up): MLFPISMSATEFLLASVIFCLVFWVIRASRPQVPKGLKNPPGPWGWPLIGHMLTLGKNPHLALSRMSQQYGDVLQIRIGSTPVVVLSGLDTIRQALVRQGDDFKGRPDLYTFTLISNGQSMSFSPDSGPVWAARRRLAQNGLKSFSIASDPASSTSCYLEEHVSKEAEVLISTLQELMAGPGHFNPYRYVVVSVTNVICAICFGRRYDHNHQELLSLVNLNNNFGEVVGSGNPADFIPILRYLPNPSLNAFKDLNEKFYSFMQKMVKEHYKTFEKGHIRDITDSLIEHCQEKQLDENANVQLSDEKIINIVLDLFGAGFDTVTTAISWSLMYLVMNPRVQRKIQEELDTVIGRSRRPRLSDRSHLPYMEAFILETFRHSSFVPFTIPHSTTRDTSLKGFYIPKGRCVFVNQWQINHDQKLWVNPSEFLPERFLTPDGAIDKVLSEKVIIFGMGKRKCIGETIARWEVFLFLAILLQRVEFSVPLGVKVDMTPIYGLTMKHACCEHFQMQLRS

O=c1cc(-c2ccccc2)oc2c1ccc1ccccc12
IC50 (Cytochrome P450 1A1 (CYP1A1, Homo sapiens, UniProt P04798); enzyme activity, inhibitor; 20 min): 860 ± 60 nM

CN1CC[C@]23c4c5ccc(O)c4O[C@H]2C(=O)CC[C@H]3[C@H]1C5
specific activity (substrate; human small intestine; 50 µM, 20 min, pH 7.5): 40 pmol/min/mg

COc1ccc(CCCN[C@H](C)Cc2ccccc2)cc1
selectivity ratio (KCNH2; [3H]dofetilide binding; HEK293 membranes; 60 min, pH 7.4, with: 5 nM [3H]dofetilide; relative to: Ki hERG over Ki VMAT2): 1090

Cc1cc(OCc2nnc(SC3CCCC3)n2-c2cccnc2)ccc1-c1ccc(S(C)(=O)=O)cc1
GI50 (SNB-75): 1270 nM

Cc1ccccc1S(=O)(=O)Nc1c(N2CCC(NC(=O)Nc3ccc(OC(F)(F)F)c(F)c3)CC2)c(=O)c1=O
IC50 (Ephx2): 1890 ± 167 nM

Cc1cc(/C=C/C#N)cc(C)c1Oc1nc(Nc2ccc(C#N)c(F)c2)nc2ccsc12
inhibition (KCNH2; ion current, inhibitor; 30 µM): 21.6%

Cc1cccc(CN2CCC(C(=O)Nc3ccc(-c4cnc5ccccc5c4)cc3)CC2)c1
solubility (sodium phosphate buffer, 1% DMSO; pH 7.4): 31 to 63 µM (≈ 13.5 to 27.4 µg/mL)

Cc1ccc(S(=O)(=O)Nc2c(N3CCC(NC(=O)Nc4cc(F)cc(F)c4)CC3)c(=O)c2=O)cc1
IC50 (Ephx2): 381 ± 35.2 nM

Cn1cc(-c2cccc(N3CCn4c(cc5c4CC(C)(C)C5)C3=O)c2CO)cc(Nc2ccncn2)c1=O
fraction unbound (human pooled plasma; 4 h): 0.141

O=C(Nc1ccc(-c2ccc3ccccc3n2)cc1)C1CCN(Cc2ccc(F)cc2F)CC1
solubility (sodium phosphate buffer, 1% DMSO; pH 7.4): 31 to 63 µM (≈ 14.2 to 28.8 µg/mL)

N#Cc1ccc(-c2csc(CNC(=O)C34CC(CN(C(=O)COCCF)C3)C4)n2)cc1
efflux ratio (Caco-2): 6.6

O=C(Nc1ccc(-c2cnc3ccccc3c2)cc1)C1CCN(Cc2cccc([N+](=O)[O-])c2)CC1
solubility (sodium phosphate buffer, 1% DMSO; pH 7.4): 31 to 63 µM (≈ 14.5 to 29.4 µg/mL)

C(#Cc1c[nH]c2nccc(-c3ccncc3)c12)c1cccnc1
half-life (C57BL/6 mouse, male; oral, 20 mg/kg): 2.97 ± 2.13 h
